Results of several laboratories.
A part holds a random share of what one study measured. Positions count from the first letter of the parent shown.

Series 1 — target: UBE2W UBC core domain (UniProt Q96B02); technique: yeast two-hybrid; medium: yeast; setting: mostly zero background; reference: not given; direction: higher = stronger interaction
B1: UHRF2 RING domain (UniProt Q96PU4); chain CGGDPEKKCHSCSCRVCGGKHEPNMQLLCDECNVAYHIYCLNPPLDKVPEEEYWYCPSCKTDSSEVVKAGER
B2: ZNF598 RING domain (UniProt Q86UK7); chain AAAPERGGGSCVLCCGDLEATALGRCDHPVCYRCSTKMRVLCEQRYCAVCREELRQVVFGK
B3: ARK2C RING domain (UniProt Q6ZSG1); chain EGEESDTDEKCTICLSMLEDGEDVRRLPCMHLFHQLCVDQWLAMSKKCPICRVDIETQLGAD
B4: TRIM63 RING domain (UniProt Q969Q1); chain PMENLEKQLICPICLEMFTKPVVILPCQHNLCRKCANDIFQAANPYWTSRGSSVSMSGGRFRCPTCRHEVIMDRHGV
B5: IRF2BPL RING domain (UniProt Q9H1B7); chain SPMANSGPLCCTICHERLEDTHFVQCPSVPSHKFCFPCSRESIKAQGATGEVYCPSGEKCPLVGSNVP
Construct (chain): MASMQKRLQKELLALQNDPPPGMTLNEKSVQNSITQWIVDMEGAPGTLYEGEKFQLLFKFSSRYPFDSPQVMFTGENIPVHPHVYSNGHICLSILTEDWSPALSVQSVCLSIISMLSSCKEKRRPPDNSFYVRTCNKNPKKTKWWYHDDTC
| Molecule | lacZ reporter activity |
| --- | --- |
| B1 (UHRF2 RING domain) | 0 |
| B2 (ZNF598 RING domain) | 0 |
| PEELQAMDNVCIICREEMVTGAKRLPCNHIFHTSCLRSWFQRQQTCPTCRMDVLRASLPA (SYVN1 RING domain (UniProt Q86TM6)) | 0 |
| B3 (ARK2C RING domain) | 11200 |
| B4 (TRIM63 RING domain) | 0 |
| B5 (IRF2BPL RING domain) | 0 |

Series 2 — technique: RNAcompete; form: RNA; medium: in vitro; concentration: 20 nM; setting: 7-mer, probes averaged, single round; reference: mean of 7-mers; direction: higher = stronger binding
Target: PABPC1L2, full length, GST fusion (mouse, UniProt A0ABA7IW68)
Target sequence (chain): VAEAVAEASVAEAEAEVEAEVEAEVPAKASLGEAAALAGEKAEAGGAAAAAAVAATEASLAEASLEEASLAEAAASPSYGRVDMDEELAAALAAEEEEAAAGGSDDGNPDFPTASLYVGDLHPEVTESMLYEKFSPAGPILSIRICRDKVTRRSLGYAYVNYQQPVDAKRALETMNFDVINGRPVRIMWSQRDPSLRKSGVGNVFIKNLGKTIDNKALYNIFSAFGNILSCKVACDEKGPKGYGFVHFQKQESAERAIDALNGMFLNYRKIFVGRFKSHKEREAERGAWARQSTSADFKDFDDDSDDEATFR
| Oligonucleotide | 7-mer Z-score |
| --- | --- |
| GAAGUAU | -0.148 |
| UAGAACC | -0.18 |
| GGGGCGG | 0.329 |
| UGAUUGU | -0.262 |
| GAUGAAG | -0.0754 |
| CCUCCUU | -0.434 |
| GACGCUG | -0.211 |
| CACCUGA | -0.219 |

Series 3 — target: CCNB3, cyclin fold, Cln2 fusion (human); technique: yeast growth competition, sequencing; medium: yeast; setting: strong parent motif; reference: not given; direction: higher = stronger binding; starting sequence: viral docking peptide; YKVKRRLVFGADD
| Substitution | normalised enrichment score |
| --- | --- |
| R6T | 3.18 |
| L7C | -0.513 |
| A11C | 1.74 |
| K4N | 1.76 |
| D12I | 1.34 |
| L7P | 0.0594 |
| A11I | 2.03 |
| F9V | 0.0298 |
| G10N | 2 |
| L7V | -0.179 |
| V3N | 0.28 |
| A11S | 2.14 |
| R5P | 0.0265 |
| L7G | -0.0134 |
| G10T | 1.98 |

Series 4 — effect on: peptide-MHC binding; form: peptide; concentration: concentration not given
Target: HLA class I histocompatibility antigen, A alpha chain, allele A*80:01 (Homo sapiens, UniProt P04439)
| Molecule | binding |
| --- | --- |
| GYLHDFLKY | inactive |
| FELLHFISS | inactive |
| QCFSVVLRY | active |
| DTWHGFKNM | inactive |
| RVPTVFHKK | inactive |
| NTDNKFISY | inactive |
| FRYKSRCYV | inactive |

Excerpt of the above (series 3):
| Substitution | normalised enrichment score |
| --- | --- |
| D12I | 1.34 |
| L7P | 0.0594 |
| F9V | 0.0298 |
| L7C | -0.513 |
